Measurements from different studies.
± marks the error that the study gave.
VHL/BRD9 with Elongin B/C: VHL/BRD9, with Elongin B/C (Homo sapiens, UniProt P40337+Q9H8M2)
CALCR: Calcitonin receptor (CALCR, Homo sapiens, UniProt P30988)

CC(=O)NCCN(c1nc(N2CC3C(CCOc4cc(-c5scnc5C)ccc4CNC(=O)[C@@H]4C[C@@H](O)CN4C(=O)[C@@H](NC(=O)C4(F)CC4)C(C)(C)C)C3C2)nc(N2CC(n3ccnc3)C2)n1)C(C)C (stereo partly drawn)
EC50 (VHL/BRD9 with Elongin B/C; ternary complex formation, AlphaScreen; with: 50 nM His-BRD9 and 20 nM biotin-VCB): 0.071 µM

COc1ccc(C(=O)c2c(C(=O)NCCCN(C)C)oc3ccc(Cl)cc3c2=O)cc1OC
EC50 (Growth hormone secretagogue receptor type 1 (GHSR, Homo sapiens, UniProt Q92847, E197A); intracellular Ca2+, agonist; HEK293T transiently transfected): 0.38 µM

COc1cc(C2C(NC(=O)c3ccc(NC(=O)OC(C)(C)C)cc3)(C(=O)O)C(c3ccc(OC(=O)c4cccs4)c(OC)c3)C2(NC(=O)c2ccc(NC(=O)OC(C)(C)C)cc2)C(=O)O)ccc1OC(=O)c1cccs1 (stereo not drawn)
EC50 (Glucagon-like peptide 1 receptor (GLP1R, Homo sapiens, UniProt P43220, L201A); cAMP, agonist): 0.38 µM

CC[C@H](C)[C@H](NC(=O)[C@@H]1CCCN1C(=O)CNC(=O)[C@H](Cc1ccccc1)NC(=O)[C@H](CC(N)=O)NC(=O)[C@H](CC(N)=O)NC(=O)[C@H](CO)NC(=O)[C@H](CO)NC(=O)[C@H](Cc1c[nH]cn1)NC(=O)[C@H](CCCNC(=N)N)NC(=O)[C@H](CC(C)C)NC(=O)[C@H](Cc1ccccc1)NC(=O)[C@H](CCC(=O)O)NC(=O)[C@H](C)NC(=O)[C@H](CC(C)C)NC(=O)[C@H](CCCNC(=N)N)NC(=O)[C@H](CCC(N)=O)NC(=O)[C@@H](NC(=O)[C@H](C)NC(=O)[C@@H]1CSSC[C@H](NC(=O)[C@H](CCCCN)NC(=O)CC[C@H](NC(=O)CCCCCCCCCCCCCCCCCCC(=O)O)C(=O)O)C(=O)N[C@@H](CC(N)=O)C(=O)N[C@@H]([C@@H](C)O)C(=O)N[C@@H](C)C(=O)N[C@@H]([C@@H](C)O)C(=O)N1)[C@@H](C)O)C(=O)N[C@@H](CC(C)C)C(=O)N1CCC[C@H]1C(=O)N1CCC[C@H]1C(=O)N[C@H](C(=O)N[C@@H](CC(N)=O)C(=O)N[C@H](C(=O)NCC(=O)N[C@@H](CO)C(=O)N[C@@H](CC(N)=O)C(=O)N[C@H](C(=O)N1CCC[C@H]1C(N)=O)[C@@H](C)O)C(C)C)[C@@H](C)O
EC50 (Calcitonin receptor, isoform a (CALCR, Homo sapiens, UniProt P30988); cAMP accumulation, agonist, cAMP HTRF; COS-7, BacMam expression; 30 min, without human serum albumin): 1.09e-06 µM

O=Cc1ccc([N+](=O)[O-])c(OS(=O)(=O)c2cccc(OC(F)F)c2)c1
EC50 (YWHAG/RELA, phospho-Ser45 p65 peptide (Homo sapiens, UniProt P61981+Q04206); ternary complex formation, stabilizer, fluorescence anisotropy): > 1000 µM

CC[C@H](C)[C@@H](C(=O)N[C@@H](CC(C)C)C(=O)N[C@@H](CO)C(=O)N[C@@H](CO)C(=O)N[C@H](C(=O)N[C@@H](CCC(=O)O)C(=O)N[C@H](C(=O)NCC(=O)N[C@@H](CO)C(=O)N[C@@H](CC(N)=O)C(=O)N[C@H](C(=O)N1C[C@H](O)C[C@H]1C(N)=O)[C@@H](C)O)C(C)C)[C@@H](C)O)N(C)C(=O)[C@H](C)NC(=O)CN(C)C(=O)[C@H](Cc1ccccc1)NC(=O)[C@H](CO)NC(=O)[C@H](CO)NC(=O)[C@H](CCCNC(=N)N)NC(=O)[C@H](CCC(N)=O)NC(=O)[C@H](CC(C)C)NC(=O)[C@H](Cc1ccccc1)NC(=O)[C@H](Cc1c[nH]cn1)NC(=O)[C@H](C)NC(=O)[C@H](CC(C)C)NC(=O)[C@H](CCCNC(=N)N)NC(=O)[C@H](CCC(=O)O)NC(=O)[C@@H](NC(=O)[C@H](C)NC(=O)[C@@H]1CCCCNC(=O)C[C@H](NC(=O)[C@H](CCCNC(=N)N)NC(=O)CC[C@H](NC(=O)CCCCCCCCCCCCCCCCCCC(=O)O)C(=O)O)C(=O)NCC(=O)N[C@@H]([C@@H](C)O)C(=O)N[C@@H](C)C(=O)N[C@@H]([C@@H](C)O)C(=O)N1)[C@@H](C)O
EC50 (CALCR; cAMP, agonist): 0.000537 µM

CC(=O)NCC1CCCCN1c1nc(N(C)CCc2ncc(C)s2)nc(N2CC3C(CCOc4cc(-c5scnc5C)ccc4CNC(=O)[C@@H]4C[C@@H](O)CN4C(=O)[C@@H](NC(=O)C4(F)CC4)C(C)(C)C)C3C2)n1 (stereo partly drawn)
EC50 (VHL/BRD9 with Elongin B/C; ternary complex formation, AlphaScreen; with: 50 nM His-BRD9 and 20 nM biotin-VCB): 0.294 µM

COc1ccc2[nH]c(-c3cccc4ccccc34)c(CCNC(=O)CI)c2n1
EC50 (Melatonin receptor type 1B (MTNR1B, Homo sapiens, UniProt P49286); cAMP, agonist, TR-FRET): 3.31 µM

O=S(=O)(c1ccc(-c2ccc3ncnc(Nc4ccc(OCc5cccc(Cl)c5)c(Cl)c4)c3c2)cc1)N1CCOCC1
EC50 (Leishmania major; intracellular amastigote growth, luciferase; RAW264.7 macrophages): 1.1 µM

CC[C@H](C)[C@@H](C(=O)N[C@@H](CC(C)C)C(=O)N[C@@H](CO)C(=O)N[C@@H](CO)C(=O)N[C@H](C(=O)N[C@@H](CCC(=O)O)C(=O)N[C@H](C(=O)NCC(=O)N[C@@H](CO)C(=O)N[C@@H](CO)C(=O)N[C@H](C(=O)N1C[C@H](O)C[C@H]1C(N)=O)[C@@H](C)O)C(C)C)[C@@H](C)O)N(C)C(=O)[C@H](C)NC(=O)CN(C)C(=O)[C@H](Cc1ccccc1)NC(=O)[C@H](CO)NC(=O)[C@H](CO)NC(=O)[C@H](CCCNC(=N)N)NC(=O)[C@@H](NC(=O)[C@H](CC(C)C)NC(=O)[C@H](Cc1ccccc1)NC(=O)[C@H](Cc1c[nH]cn1)NC(=O)[C@H](C)NC(=O)[C@H](CC(C)C)NC(=O)[C@H](CCCNC(=N)N)NC(=O)[C@H](CCC(=O)O)NC(=O)[C@@H](NC(=O)[C@H](C)NC(=O)[C@@H]1CSSC[C@H](NC(=O)[C@H](CCCNC(=N)N)NC(=O)CC[C@H](NC(=O)CCCCCCCCCCCCCCCCCCC(=O)O)C(=O)O)C(=O)NCC(=O)N[C@@H]([C@@H](C)O)C(=O)N[C@@H](C)C(=O)N[C@@H]([C@@H](C)O)C(=O)N1)[C@@H](C)O)[C@@H](C)O
EC50 (CALCR; cAMP, agonist): 9.77e-05 µM

CCCCCCCCCCCCCCCC(=O)OCC(CSC[C@H](N)C(=O)N[C@@H](CO)C(=O)N[C@@H](CCCCN)C(=O)N[C@@H](CCCCN)C(=O)N[C@@H](CCCCN)C(=O)N[C@@H](CCCCN)C(=O)O)OC(=O)CCCCCCCCCCCCCCC (stereo partly drawn)
EC50 (Toll-like receptor 2 (TLR2, Homo sapiens, UniProt O60603); reporter gene, agonist; HEK-Blue hTLR2 cells): 1e-05 ± 4e-06 µM

Fc1cccc(COc2ccc(Nc3ncnc4ccc(-c5cccc(N6CCSCC6)c5)cc34)cc2Cl)c1
EC50 (Leishmania major; intracellular amastigote growth, luciferase; RAW264.7 macrophages): 10 µM

For quick reference, copied from above:
CC(=O)NCCN(c1nc(N2CC3C(CCOc4cc(-c5scnc5C)ccc4CNC(=O)[C@@H]4C[C@@H](O)CN4C(=O)[C@@H](NC(=O)C4(F)CC4)C(C)(C)C)C3C2)nc(N2CC(n3ccnc3)C2)n1)C(C)C (stereo partly drawn)
EC50 (VHL/BRD9 with Elongin B/C; ternary complex formation, AlphaScreen; with: 50 nM His-BRD9 and 20 nM biotin-VCB): 0.071 µM

COc1ccc(C(=O)c2c(C(=O)NCCCN(C)C)oc3ccc(Cl)cc3c2=O)cc1OC
EC50 (Growth hormone secretagogue receptor type 1 (GHSR, Homo sapiens, UniProt Q92847, E197A); intracellular Ca2+, agonist; HEK293T transiently transfected): 0.38 µM
